Experimental data collected from several papers.
Organism: Staphylococcus aureus

Structure (SMILES) | assay | test system | conditions | MIC
CCC1(C)CCN(Cc2cc(N(C)C)c3c(c2O)C(=O)C2=C(O)[C@]4(O)C(=O)C(C(N)=O)=C(O)[C@@H](N(C)C)[C@@H]4C[C@@H]2C3)CC1 | – | MRSA 5, Tet M, 50% mouse serum | – | 8 µg/mL
CN1/C(=C/C=C/c2cc(-c3ccccc3)cc(-c3ccccc3)[o+]2)C(C)(C)c2ccccc21 | broth dilution | HFH-30123, MRSA | – | 0.5 µg/mL
CN(C)c1cc(CNCC2CCCCC2)c(O)c2c1C[C@H]1C[C@H]3[C@H](N(C)C)C(O)=C(C(N)=O)C(=O)[C@@]3(O)C(O)=C1C2=O | – | MRSA 5, Tet M ribosome protection | – | 1 µg/mL
COc1ccc2c(c1CC=C(C)C)O[C@H]1c3cc4c(cc3OC[C@@]21O)OC(C)(C)C=C4 | – | ATCC 25923 | – | 128 µg/mL
CN(C)c1cc(CNC2CCCC2)c(O)c2c1C[C@H]1C[C@H]3[C@H](N(C)C)C(O)=C(C(N)=O)C(=O)[C@@]3(O)C(O)=C1C2=O | – | MRSA 5, Tet M, 50% mouse serum | – | 2 µg/mL
COc1ccccc1N1CCN(Cn2nc(C34CC5CC(CC(C5)C3)C4)n(-c3ccccc3)c2=S)CC1 | two-fold dilution | IFO 3060 | 24 h, 36 °C | 2 µg/mL
CNC(CC(C)C)C(=O)NC1C(=O)NC(CC(N)=O)C(=O)NC2C(=O)NC3C(=O)NC(C(=O)NC(C(=O)O)c4cc(O)cc(O)c4-c4cc3ccc4O)C(O)c3ccc(c(Cl)c3)Oc3cc2cc(c3OC2OC(CO)C(O)C(O)C2OC2CC(C)(NC(=O)CCCCCCCC[N+](C)(C)Cc3ccccc3)C(O)C(C)O2)Oc2ccc(cc2Cl)C1O (stereo not drawn) | microbial growth, agar dilution | – | clinical isolate | 64 µg/mL
c1ccc(CN2CCOCCOCCN(CCCCCCCCCCCCCCN3CCOCCOCCN(CCCCCCCCCCCCCCN4CCOCCOCCN(Cc5ccccc5)CCOCCOCC4)CCOCCOCC3)CCOCCOCC2)cc1 | microbial growth | MRSA USA100 | drug-resistant strain | 1.5 µM
Oc1c(Br)cc(Br)c2nc3cc(Cl)ccc3nc12 | broth microdilution | MRSA 44 | – | 0.1 µM
C/C(=N\Nc1nc(-c2ccc(Cl)cc2)cs1)c1ccc2c(c1)sc1nc(=O)c(C#N)cn12 | microbial growth, broth dilution | – | – | < 35 µg/mL
CC1OCC2OC(OC3C(N)CC(N)C(O)C3OC3OC(CO)C(OC4OC(CN)C(O)C(O)C4N)C3O)C(N)C(O)C2O1 (stereo not drawn) | broth microdilution | MRSA isolate AG 044 | – | 32 to 64 µg/mL
CCCCCCCCCc1nc2cc(F)ccc2c(=O)[nH]1 | broth microdilution | RN6390B | – | > 100 µM
CC(C)C[C@H](NC(=O)[C@H](CC(N)=O)NC(=O)[C@H](CCCNC(=N)N)NC(=O)[C@@H](CC(C)C)NC(=O)[C@H](Cc1ccccc1)NC(=O)[C@H](CC(=O)O)NC(=O)[C@H](CCCCN)NC(=O)[C@@H](CC(C)C)NC(=O)[C@H](CCCNC(=N)N)NC(=O)[C@H](CCC(N)=O)NC(=O)[C@@H](NC(=O)[C@@H](CC(C)C)NC(=O)[C@H](CCCNC(=N)N)NC(=O)[C@H](CCCCN)NC(=O)[C@H](Cc1ccccc1)NC(=O)CN)C(C)C)C(=O)N[C@H](C(N)=O)C(C)C | broth microdilution | USA300 LAC, MRSA | – | > 100 µM
CCc1nc(N)nc(N)c1C#C[C@H](C)c1cc(-c2ccncc2)ccc1OC | broth microdilution | ATCC 43300 | 18 h, 37 °C | 0.078 µg/mL
CO[C@H]1CN(c2ccc(C(N)=O)nn2)CC[C@H]1NC(=O)c1[nH]c(C)c(Cl)c1Cl | – | ATCC 29213 | – | 0.25 µg/mL

Repeated from above:
Structure (SMILES) | assay | test system | conditions | MIC
Oc1c(Br)cc(Br)c2nc3cc(Cl)ccc3nc12 | broth microdilution | MRSA 44 | – | 0.1 µM
CNC(CC(C)C)C(=O)NC1C(=O)NC(CC(N)=O)C(=O)NC2C(=O)NC3C(=O)NC(C(=O)NC(C(=O)O)c4cc(O)cc(O)c4-c4cc3ccc4O)C(O)c3ccc(c(Cl)c3)Oc3cc2cc(c3OC2OC(CO)C(O)C(O)C2OC2CC(C)(NC(=O)CCCCCCCC[N+](C)(C)Cc3ccccc3)C(O)C(C)O2)Oc2ccc(cc2Cl)C1O (stereo not drawn) | microbial growth, agar dilution | – | clinical isolate | 64 µg/mL
